Published values of several laboratories.
Protocols differ between the studies behind these lines. Numbers after ± are the reported error. ≈ marks a conversion by molar mass, not a printed value.
B1: UGT1A9 (Homo sapiens, UniProt O60656); chain GKLLVVPMDGSHWFTMRSVVEKLILRGHEVVVVMPEVSWQLGRSLNCTVKTYSTSYTLEDLDREFKAFAHAQWKAQVRSIYSLLMGSYNDIFDLFFSNCRSLFKDKKLVEYLKESSFDAVFLDPFDNCGLIVAKYFSLPSVVFARGILCHYLEEGAQCPAPLSYVPRILLGFSDAMTFKERVRNHIMHLEEHLLCHRFFKNALEIASEILQTPVTEYDLYSHTSIWLLRTDFVLDYPKPVMPNMIFIGGINCHQGKPLPMEFEAYINASGEHGIVVFSLGSMVSEIPEKKAMAIADALGKIPQTVLWRYTGTRPSNLANNTILVKWLPQNDLLGHPMTRAFITHAGSHGVYESICNGVPMVMMPLFGDQMDNAKRMETKGAGVTLNVLEMTSEDLENALKAVINDKSYKENIMRLSSLHKDRPVEPLDLAVFWVEFVMRHKGAPHLRPAAHDLTWYQYHSLDVIGFLLAVVLTVAFITFKCCAYGYRKCLGKKGRVKKAHKSKTH

Molecule = CC1(C)S[C@@H]2[C@H](NC(=O)[C@H](N)c3ccc(O)cc3)C(=O)N2[C@H]1C(=O)O; target or system = Klebsiella pneumoniae; system = community-acquired pneumonia patients; setting = Fine score 70 or more; endpoint = sensitive strains; result = 0%
Molecule = B1 (UGT1A9); target or system = O=c1cc(-c2ccccc2)oc2cc(O)ccc12; assay = steady-state kinetics; setting = pH 7.4, 37 °C; endpoint = Km; result = 3.59 µM
Molecule = CCOC(=O)c1c(N)csc1-c1cn(-c2ccccc2)nc1-c1ccc(C)cc1; target or system = Klebsiella pneumoniae; assay = broth microdilution; system = clinical urinary isolate; setting = compound gamma-irradiated 5 kGy; endpoint = MIC; result = 0.25 ± 0.2 µg/mL (≈ 0.62 µM)
Molecule = colistin; target or system = Klebsiella pneumoniae; system = NCTC 13424; setting = 5% CO2; endpoint = MIC; result = 4 µg/mL
Molecule = CNC(C)C1CCC(N)C(OC2C(N)CC(N)C(OC3OCC(C)(O)C(NC)C3O)C2O)O1 (centres unmarked); target or system = Klebsiella pneumoniae; assay = microbial growth, well diffusion; setting = 15000 µg/mL, 24 h; endpoint = inhibition zone; result = 32 mm
Molecule = CCCCCCCCCC(=O)N[C@@H](CCN)C(=O)N[C@H](C(=O)N[C@H](C(=O)N[C@H](CC(C)C)C(=O)N[C@@H](CC(C)C)C(=O)N[C@@H](CCN)C(=O)N[C@@H](C(=O)N[C@@H](CC(C)C)C(=O)N[C@@H](CO)C(N)=O)C(C)C)[C@@H](C)O)[C@@H](C)CC; target or system = Klebsiella pneumoniae; assay = checkerboard, refers to: rifampicin; system = ATCC 13883; setting = sensitization to antibiotics, together with: compound at 4 µg/mL; endpoint = MIC; result = > 2 µg/mL
Molecule = CC[C@H]1OC(=O)[C@H](C)[C@@H](O[C@H]2C[C@@](C)(OC)[C@@H](O)[C@H](C)O2)[C@H](C)[C@@H](O[C@@H]2O[C@H](C)C[C@H](N(C)C)[C@H]2O)[C@](C)(O)C[C@@H](C)C(=O)[C@H](C)[C@@H](O)[C@]1(C)O; target or system = Klebsiella pneumoniae; system = community-acquired pneumonia patients; setting = Fine score below 70; endpoint = sensitive strains; result = 0%
Molecule = Cc1c(NC(=O)CC2=NC(=O)CS2)c(=O)n(-c2ccccc2)n1C; target or system = Klebsiella pneumoniae; assay = microbial growth, broth dilution; endpoint = MIC; result = 0.45 µg/mL (≈ 1.31 µM)
Molecule = Nc1ccc(S(=O)(=O)Nc2ncccn2)cc1; target or system = Klebsiella pneumoniae; assay = microbial growth, well diffusion; setting = 15000 µg/mL, 24 h; endpoint = inhibition zone; result = 20.4 mm
Molecule = CCCCCOc1ccccc1C(=O)/C=C/C=C/c1ccccc1; target or system = Klebsiella pneumoniae; system = MTCC 109; setting = 1 mg/mL, 18 h; endpoint = zone of inhibition; result = 8 mm
Molecule = CSc1c(-c2nc3ccccc3s2)c(N)n(NS(=O)(=O)c2ccc(C)cc2)c(=O)c1C#N; target or system = Klebsiella pneumoniae; assay = microbial growth, well diffusion; setting = 15000 µg/mL, 24 h; endpoint = inhibition zone; result = 32.2 mm
Molecule = COc1ccc(C(=O)NN=Cc2ccc(O)c3ncccc23)cc1; target or system = Klebsiella pneumoniae; assay = bacterial growth; system = ATCC 13883; setting = cation-supplemented medium; endpoint = EC50; result = 85 µM
Molecule = CC[C@H]1OC(=O)[C@H](C)[C@@H](O[C@H]2C[C@@](C)(OC)[C@@H](O)[C@H](C)O2)[C@H](C)[C@@H](O[C@@H]2O[C@H](C)C[C@H](N(C)C)[C@H]2O)[C@](C)(O)C[C@@H](C)CN(C)[C@H](C)[C@@H](O)[C@]1(C)O; target or system = Klebsiella pneumoniae; system = community-acquired pneumonia patients; setting = Fine score 70 or more; endpoint = sensitive strains; result = 0%
Molecule = thrombospondin-1; target or system = Klebsiella pneumoniae; system = 43816, Thbs1 knock-out mice, peritoneal neutrophils; setting = intraperitoneal, 10 µg/mouse, dosed 30 min before infection; how to read = relative to: vehicle; endpoint = fold reduction in CFU; result = 5.5 ± 0.3 fold
